Published values gathered from unrelated publications.
Numbered parts are unrelated; each lists some results of a single study.
Chain of UniProt P20263 (131-289, looked up): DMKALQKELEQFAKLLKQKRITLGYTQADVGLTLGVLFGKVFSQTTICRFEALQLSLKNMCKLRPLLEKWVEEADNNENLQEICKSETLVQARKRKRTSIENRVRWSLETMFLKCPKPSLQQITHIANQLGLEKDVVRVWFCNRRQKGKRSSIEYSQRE

Block 1 — method: protein binding microarray; form: double-stranded DNA, one strand shown; sample: in vitro; tested at: not given; baseline: not given; reading: higher = stronger binding
Target: Histone acetyltransferase KAT6A, both winged helices, GST fusion (KAT6A, Homo sapiens, UniProt Q92794, residues 1-181)
Notes: 8-mer, flanks averaged, mean of 2 arrays, mostly near background
Target sequence (chain): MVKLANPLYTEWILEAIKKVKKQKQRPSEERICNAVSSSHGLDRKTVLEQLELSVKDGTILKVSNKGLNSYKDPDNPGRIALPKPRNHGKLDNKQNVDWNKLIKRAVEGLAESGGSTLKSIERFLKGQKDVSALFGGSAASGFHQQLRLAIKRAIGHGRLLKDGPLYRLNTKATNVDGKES
Strand	E-score
AGTGTACA	-0.00792
GCGAAGCC	0.0347
GTCGAGTA	-0.0697

Block 2 — method: aptamer microarray, sandwich; form: DNA with 2'F-ANA; sample: in vitro; tested at: 200 nM; with: Cy3 exosite-II aptamer, 400 nM; reading: higher = stronger binding
Target: Prothrombin, mature alpha-thrombin (F2, Homo sapiens, UniProt P00734)
Notes: whole 15-mer aptamer, many near background
Strand	mean fluorescence intensity [a.u.]
GGTTGGTGTGGTTGG (2'F-ANA at 1 2 3 6 9 11 15)	151
GGTTGGTGTGGTTGG (2'F-ANA at 1 6 7 10 11 12 14)	49.9
GGTTGGTGTGGTTGG (2'F-ANA at 2 3 4 5 6 7 8 9 11 13 14 15)	52.6

Further values, each from its own experiment
Substance	target	assay	test system	setting	scale	measurement	value
GAGTCGTCTCGTCAGCACCGAGTAATCCGTAGAGCACTCAGGTC	POU domain, class 5, transcription factor 1, POU domain (Pou5f1, Mus musculus, UniProt P20263, residues 131-289)	Spec-seq	double-stranded DNA, one strand shown, in vitro	not given, whole probe, mean of replicates	baseline: not given, lower = stronger binding	relative binding energy	0.911 ln ratio
PhoQ, residues 284 288 289 292 302 303 SLSLLA	PhoP, residues 12 14 15 18 19 NQAHL (Escherichia coli, UniProt P23836)	Sort-seq, measured: YFP reporter	E. coli	PhoQ-PhoP variant library, with: 10 µM Mg2+	baseline: high Mg2+ state, higher = stronger signaling	fold induction	29.4

Some of these lines once more (further values, each from its own experiment):
Substance	target	assay	test system	setting	scale	measurement	value
GAGTCGTCTCGTCAGCACCGAGTAATCCGTAGAGCACTCAGGTC	POU domain, class 5, transcription factor 1, POU domain (Pou5f1, Mus musculus, UniProt P20263, residues 131-289)	Spec-seq	double-stranded DNA, one strand shown, in vitro	not given, whole probe, mean of replicates	baseline: not given, lower = stronger binding	relative binding energy	0.911 ln ratio
